Results gathered from unrelated publications.
Every numbered part comes from another study and shows a few of its results, in no order. Positions count from the first letter of the parent shown.

Study 1
Target: NFE2L2, bZIP domain (human)
Technique: DHFR protein complementation
Matrix: yeast
Setting: single substitutions, most at no-binding floor
Relative to: wild-type JUN-FOS pair
Direction: higher = stronger binding
Starting sequence: JUN, bZIP domain (human); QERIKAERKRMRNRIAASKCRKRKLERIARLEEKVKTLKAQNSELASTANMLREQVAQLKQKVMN; partner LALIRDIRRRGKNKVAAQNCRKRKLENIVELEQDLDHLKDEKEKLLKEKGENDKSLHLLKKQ
The binding fitness of `L38R` is reported as -1.45 natural log.
With `L38A` the binding fitness was -1.35 natural log.
`I28H` gave a binding fitness of -1.38 natural log.
`A46Y` has a binding fitness of -1.56 natural log.
With `K36A` the binding fitness was -1.34 natural log.
`L45R` gave a binding fitness of -1.49 natural log.
`E32M` gave a binding fitness of -1.2 natural log.
The binding fitness of `V35G` is reported as -1.49 natural log.
The binding fitness of `V35P` is reported as -1.51 natural log.
For `V56Q`, the binding fitness was -1.49 natural log.
`K36V` has a binding fitness of -1.28 natural log.
`L45P` gave a binding fitness of -1.52 natural log.
The binding fitness of `R30C` is reported as -1.27 natural log.
With `K39A` the binding fitness was -1.51 natural log.
`L31A` has a binding fitness of -1.49 natural log.
For `V35Q`, the binding fitness was -1.34 natural log.
The binding fitness of `E54Q` is reported as -1.62 natural log.
For `R53T`, the binding fitness was -1.57 natural log.
With `V56T` the binding fitness was -1.44 natural log.
With `L31W` the binding fitness was -1.36 natural log.
`R30L` has a binding fitness of -1.42 natural log.
`A57M` gave a binding fitness of -1.55 natural log.

Study 2
Target: Histone acetyltransferase KAT6A, winged helix 2, GST fusion (KAT6A, Homo sapiens, UniProt Q92794, residues 85-181)
Technique: protein binding microarray
Form: double-stranded DNA, one strand shown
Matrix: in vitro
Tested at: not given
Setting: 8-mer, flanks averaged, mean of 2 arrays, mostly near background
Relative to: not given
Direction: higher = stronger binding
Residues (chain): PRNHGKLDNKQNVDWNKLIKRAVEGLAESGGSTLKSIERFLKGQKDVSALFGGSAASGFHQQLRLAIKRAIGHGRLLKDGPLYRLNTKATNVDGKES
`CTATGAGC` has an E-score of -0.0989.
`AGAAAATG` gave an E-score of 0.158.
With `AGTCGACA` the E-score was -0.00503.
`GGGTCCCA` gave an E-score of 0.00297.
The E-score of `TATCAATA` is reported as 0.114.
The E-score of `AAAGGTGC` is reported as -0.124.
The E-score of `AAGCTCGC` is reported as 0.193.
`GATTCACA` has an E-score of -0.0355.
The E-score of `GCAGTCGA` is reported as 0.0907.
`ATGAGTCG` has an E-score of -0.13.
With `ATGCTTGA` the E-score was 0.108.
`CGTTGGTC` has an E-score of -0.0978.
The E-score of `CGAGTTTA` is reported as -0.119.
`AGGTCCAA` has an E-score of -0.0655.
With `AGGAAAGG` the E-score was -0.0192.
For `CTTGTTGC`, the E-score was 0.0218.
The E-score of `ATACACCA` is reported as -0.107.
`AGTATTTC` has an E-score of 0.107.
`AGCAATAG` has an E-score of -0.028.
With `AACGTAGA` the E-score was -0.126.

Study 3
Target: Interferon regulatory factor 7, full length, phosphomimetic (IRF7, Homo sapiens, UniProt Q92985, residues 1-503, S101K/S471D/S472D/S475D/S476D/S477D/S483D/S484D/S487D)
Sequence of UniProt Q92985 (whole entry, unmodified, looked up): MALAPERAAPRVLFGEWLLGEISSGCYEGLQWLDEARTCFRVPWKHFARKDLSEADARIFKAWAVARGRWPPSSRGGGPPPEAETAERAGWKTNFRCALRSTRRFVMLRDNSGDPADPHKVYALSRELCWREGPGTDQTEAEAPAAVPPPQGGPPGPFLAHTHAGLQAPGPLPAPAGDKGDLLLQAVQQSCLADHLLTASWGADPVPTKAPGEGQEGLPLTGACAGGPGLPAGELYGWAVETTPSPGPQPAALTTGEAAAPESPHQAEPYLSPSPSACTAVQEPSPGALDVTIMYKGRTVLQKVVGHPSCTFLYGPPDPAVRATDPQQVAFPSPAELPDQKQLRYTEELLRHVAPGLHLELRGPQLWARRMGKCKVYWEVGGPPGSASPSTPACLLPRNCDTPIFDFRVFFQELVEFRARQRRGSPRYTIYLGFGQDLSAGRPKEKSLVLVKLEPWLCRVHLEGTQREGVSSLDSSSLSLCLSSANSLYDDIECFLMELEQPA
Technique: protein-binding microarray
Form: double-stranded DNA, one strand shown
Matrix: in vitro
Tested at: 250 nM
Setting: 60-bp whole probe
With: salmon DNA 0.4 mg/ml
Relative to: random background probes
Direction: higher = stronger binding
All sequences stand within: GCCTAGCAC … GTCTTGATTCGCTTGACGCTGCTG
For `TTAGGACTGGACTATCGTTTAGTGCTA`, the log fluorescence was -0.34 z-score.
The log fluorescence of `TCATGTCTCTGGCCTGGGACTGTGCTA` is reported as 0.00477 z-score.
With `GACGAACTGACTTTCGAGACGTGCTAG` the log fluorescence was 0.0923 z-score.
`TTAGGTATCGGGTATCGGATAGTGCTA` gave a log fluorescence of 1.21 z-score.
For `TCATTTTTATTTTCTGAACTGTGCTAG`, the log fluorescence was 1.32 z-score.
The log fluorescence of `TCACCTTTTATATTGTAACTGTGCTAG` is reported as 0.898 z-score.
`AACGAACTGAGTATCGAGACGTGCTAG` gave a log fluorescence of -0.031 z-score.
With `GACGGTTTCGGTTCAGGGACGTGCTAG` the log fluorescence was 13.7 z-score.
`TTAGAACTGGGTTTTCGATTAGTGCTA` gave a log fluorescence of 1.89 z-score.
For `TCAAGTGTTTTTCTCCTACTGTGCTAG`, the log fluorescence was 0.322 z-score.
For `TTGGATATCGGGTTTCGATTAGTGCTA`, the log fluorescence was 6.48 z-score.
`ACGAGTTTCCATTTTCTGAAGTGCTAG` has a log fluorescence of 7.23 z-score.
`TCACATACTAATTTCCAACTGTGCTAG` has a log fluorescence of 0.671 z-score.
`TTAGGTTTCCTACTGCTTTGGTGCTAG` gave a log fluorescence of 1.13 z-score.
`GTAGGTATCGGACTGGGTTAGTGCTAG` gave a log fluorescence of -0.0623 z-score.
For `TCATATCTAAGATTCTAACTGTGCTAG`, the log fluorescence was 1.03 z-score.
With `TTAGGTCTCCCACTGCTTTAGTGCTAG` the log fluorescence was 0.0249 z-score.
With `TTAGGTTTCGACACTCGGTTAGTGCTA` the log fluorescence was 4.81 z-score.
`GACGGTTTCGGGTATCGGGAGGTGCTA` has a log fluorescence of 7.04 z-score.

Study 4
Target: CCND1, cyclin fold, Cln2 fusion (human)
Technique: yeast growth competition, sequencing
Matrix: yeast
Setting: weak parent motif
Relative to: not given
Direction: higher = stronger binding
Starting sequence: RB1 docking peptide (human); PKPLKKLRFDIEG; partner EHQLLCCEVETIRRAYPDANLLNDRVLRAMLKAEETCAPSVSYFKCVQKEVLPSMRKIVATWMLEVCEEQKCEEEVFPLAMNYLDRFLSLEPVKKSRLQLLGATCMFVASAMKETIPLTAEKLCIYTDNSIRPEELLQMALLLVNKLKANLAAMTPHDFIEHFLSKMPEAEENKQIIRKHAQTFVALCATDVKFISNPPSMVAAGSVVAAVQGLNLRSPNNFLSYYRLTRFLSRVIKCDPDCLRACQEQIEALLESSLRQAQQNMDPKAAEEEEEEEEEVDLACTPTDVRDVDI
`PKPPKKLRFDIEG [L4P]` — result for “normalised enrichment score”: -0.136.
Under “normalised enrichment score”, `PKPLKKLRFDILG [E12L]` is recorded as 0.176.
`DKPLKKLRFDIEG [P1D]` — result for “normalised enrichment score”: 1.49.
Under “normalised enrichment score”, `PKELKKLRFDIEG [P3E]` is recorded as 0.395.
`PKPLKKLRFDIFG [E12F]`: “normalised enrichment score” 0.46.
`PKPLKKLRFRIEG [D10R]` — result for “normalised enrichment score”: 0.939.
`PKPWKKLRFDIEG [L4W]` — result for “normalised enrichment score”: -0.202.
`PKPLKKLWFDIEG [R8W]`: “normalised enrichment score” -0.155.
`PKPLKKIRFDIEG [L7I]`: “normalised enrichment score” -0.139.
`PKHLKKLRFDIEG [P3H]` — result for “normalised enrichment score”: -0.531.
Under “normalised enrichment score”, `PKPLKKLRFDNEG [I11N]` is recorded as 0.302.
For `PKPLKILRFDIEG [K6I]`, “normalised enrichment score” read 0.559.
`PVPLKKLRFDIEG [K2V]` — result for “normalised enrichment score”: 0.448.
`GKPLKKLRFDIEG [P1G]`: “normalised enrichment score” -0.143.
`PKPLKKLNFDIEG [R8N]`: “normalised enrichment score” 0.219.
`PKPLHKLRFDIEG [K5H]` — result for “normalised enrichment score”: 0.133.

Some of these lines once more (study 2):
`ATGAGTCG` has an E-score of -0.13.
With `ATGCTTGA` the E-score was 0.108.
`CGTTGGTC` has an E-score of -0.0978.
The E-score of `CGAGTTTA` is reported as -0.119.
`AGGTCCAA` has an E-score of -0.0655.
With `AGGAAAGG` the E-score was -0.0192.
For `CTTGTTGC`, the E-score was 0.0218.
The E-score of `ATACACCA` is reported as -0.107.
`AGTATTTC` has an E-score of 0.107.
`AGCAATAG` has an E-score of -0.028.
With `AACGTAGA` the E-score was -0.126.
